Results collected from several papers.
Compare with care: the assays were run in different laboratories. “And” joins repeats or separate records; there may be more than shown. Numbers after ± are the reported error.
U2AF2: U2AF2 148-342 (Homo sapiens, UniProt P26368)
Chain of UniProt P26368 (whole entry, looked up): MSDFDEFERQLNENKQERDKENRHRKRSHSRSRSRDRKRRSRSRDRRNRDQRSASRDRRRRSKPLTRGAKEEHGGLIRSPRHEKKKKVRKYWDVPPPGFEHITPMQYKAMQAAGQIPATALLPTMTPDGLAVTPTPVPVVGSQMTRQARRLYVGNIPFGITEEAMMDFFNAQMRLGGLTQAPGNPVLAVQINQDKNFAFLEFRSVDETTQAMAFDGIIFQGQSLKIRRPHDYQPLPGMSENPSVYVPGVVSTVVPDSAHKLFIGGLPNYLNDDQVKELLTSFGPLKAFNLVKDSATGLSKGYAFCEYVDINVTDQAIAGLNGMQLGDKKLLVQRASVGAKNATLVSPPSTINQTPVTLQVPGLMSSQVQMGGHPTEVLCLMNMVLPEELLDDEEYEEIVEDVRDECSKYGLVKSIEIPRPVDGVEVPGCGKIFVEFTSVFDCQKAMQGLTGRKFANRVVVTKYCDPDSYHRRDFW
B1: human ADP/ATP translocase 2; sequence looked up; chain MTDAAVSFAKDFLAGGVAAAISKTAVAPIERVKLLLQVQHASKQITADKQYKGIIDCVVRIPKEQGVLSFWRGNLANVIRYFPTQALNFAFKDKYKQIFLGGVDKRTQFWLYFAGNLASGGAAGATSLCFVYPLDFARTRLAADVGKAGAEREFRGLGDCLVKIYKSDGIKGLYQGFNVSVQGIIIYRAAYFGIYDTAKGMLPDPKNTHIVISWMIAQTVTAVAGLTSYPFDTVRRRMMMQSGRKGTDIMYTGTLDCWRKIARDEGGKAFFKGAWSNVLRGMGGAFVLVLYDEIKKYT
B2: PP methylesterase 1 (human); sequence looked up; chain SALEKSMHLGRLPSRPPLPGSGGSQSGAKMRMGPGRKRDFSPVPWSQYFESMEDVEVENETGKDTFRVYKSGSEGPVLLLLHGGGHSALSWAVFTAAIISRVQCRIVALDLRSHGETKVKNPEDLSAETMAKDVGNVVEAMYGDLPPPIMLIGHSMGGAIAVHTASSNLVPSLLGLCMIDVVEGTAMDALNSMQNFLRGRPKTFKSLENAIEWSVKSGQIRNLESARVSMVGQVKQCEGITSPEGSKSIVEGIIEEEEEDEEGSESISKRKKEDDMETKKDHPYTWRIELAKTEKYWDGWFRGLSNLFLSCPIPKLLLLAGVDRLDKDLTIGQMQGKFQMQVLPQCGHAVHEDAPDKVAEAVATFLIRHRFAEPIGGFQCVFPGC
Chain of UniProt P13393 (whole entry, looked up): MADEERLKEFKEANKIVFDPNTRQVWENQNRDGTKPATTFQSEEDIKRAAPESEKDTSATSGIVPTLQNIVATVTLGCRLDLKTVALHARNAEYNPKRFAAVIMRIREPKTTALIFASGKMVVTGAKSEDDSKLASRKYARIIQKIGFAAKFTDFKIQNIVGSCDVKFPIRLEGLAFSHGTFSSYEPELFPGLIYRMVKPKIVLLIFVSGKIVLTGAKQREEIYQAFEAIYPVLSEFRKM

With `CTCAGGAATTCCCATAAAGTAATGTGGAGCTCAGTTCAAGTCAATCGGTCC (dsDNA; 5'-amino-C6 primer)` the Kd was 0.0194 ± 0.00165 µM (SPT15 full length assumed (Saccharomyces cerevisiae, UniProt P13393); array; double-stranded DNA, one strand shown; TBP alone).
With `QIDIIRLGY` the GFP-positive cells was 0.464% (Jurkat expressing engineered TCR; NFAT-eGFP reporter, fluorescence microscopy; peptide; concentration not given, HLA-A*01:01 on EL4 cells).
Under “log2 fold change”, `human alpha-enolase` is recorded as 0.79 (CYB5R4 knockout human cells; PP4 interaction, 3xFLAG-PP4C IP-MS; concentration not given; reference: CYB5R4 KO over parental).
The GFP-positive cells of `GADPIQLGY` is reported as 0.517% (Jurkat expressing engineered TCR; NFAT-eGFP reporter, fluorescence microscopy; peptide; concentration not given, HLA-A*01:01 on EL4 cells).
`human WNK1` — result for “log2 fold change”: 0.75 (CYB5R4 knockout human cells; PP4 interaction, 3xFLAG-PP4C IP-MS; concentration not given; reference: CYB5R4 KO over parental).
For `heparin`, neurite outgrowth read “inhibited” (PC-12 cells; inhibitor; 100 µg/mL, with: HBGF-2).
`QVDPIGLDF` has a GFP-positive cells of 0.429% (Jurkat expressing engineered TCR; NFAT-eGFP reporter, fluorescence microscopy; peptide; concentration not given, HLA-A*01:01 on EL4 cells).
`PSMD3 (human)`: “log2 fold change” -0.43 (CYB5R4 knockout human cells; PP4 interaction, 3xFLAG-PP4C IP-MS; concentration not given; reference: CYB5R4 KO over parental).
The recovery of `Teicoplanin` is reported as 101% (QC solution; 2 months, -40 °C, low QC level).
The selectivity ratio of `MTVCNASQRQAHAQATAVSL` is reported as 150 ± 35 (H460; phage binding; peptide; reference: targeting over control phage).
`human IGHG1` — result for “log2 fold change”: 2.02 (CYB5R4 knockout human cells; PP4 interaction, 3xFLAG-PP4C IP-MS; concentration not given; reference: CYB5R4 KO over parental).
`colistin` gave an MIC of greater than 64 mg/L (Acinetobacter baumannii; broth microdilution; clinical isolate RKI-No_596/16).
`B1 (human ADP/ATP translocase 2)`: “log2 fold change” -0.69 (CYB5R4 knockout human cells; PP4 interaction, 3xFLAG-PP4C IP-MS; concentration not given; reference: CYB5R4 KO over parental).
The GFP-positive cells of `ELEPIYLGF` is reported as 0.418% (Jurkat expressing engineered TCR; NFAT-eGFP reporter, fluorescence microscopy; peptide; concentration not given, HLA-A*01:01 on EL4 cells).
`catalase` — result for protein level: “decreased” (LS174T; western blot, measured: cyclin A, D1 and E; concentration not given, 48 h).
`UAAAUUAUA (ssRNA)` has a Kd of 4.75 µM (U2AF2; sequencing of bound RNA; RNA; motif only).
With `TRAIL` the viability was 27.1% and 25.9% (EA.hy926; CellTiter-Glo; concentration not given).
`epoetin alfa` gave a mRNA level of 3.4 fold (UT7/EPO; microarray, measured: PLSCR1 mRNA (probe set 241916_at); 5 U/mL, 90 min; reference: vehicle).
`B2 (PP methylesterase 1)`: “log2 fold change” -0.0171 (CYB5R4 knockout human cells; PP4 interaction, 3xFLAG-PP4C IP-MS; concentration not given; reference: CYB5R4 KO over parental).
For `GTDPIPRTM`, the GFP-positive cells was 0.424% (Jurkat expressing engineered TCR; NFAT-eGFP reporter, fluorescence microscopy; peptide; concentration not given, HLA-A*01:01 on EL4 cells).
The cholesterol efflux of `Ac-LRKLRKRLLRDWLKAFYDKVAEKLKEAF-NH2 (N-acetyl, C-amide)` is reported as 10% (THP-1 macrophages; peptide; 5 µg/mL, with: [3H]-cholesterol loading; reference: control).
`CUUCAUUAU (ssRNA)` gave a Kd of 3.75 µM (U2AF2; sequencing of bound RNA; RNA; motif only).
`KSDPITSSY` has a GFP-positive cells of 0.508% (Jurkat expressing engineered TCR; NFAT-eGFP reporter, fluorescence microscopy; peptide; concentration not given, HLA-A*01:01 on EL4 cells).
For `Peginesatide`, the mRNA level was 10.9 fold (UT7/EPO; microarray, measured: CISH mRNA (probe set 223961_s_at); 20 nM, 90 min; reference: vehicle).

For quick reference, copied from above:
With `TRAIL` the viability was 27.1% and 25.9% (EA.hy926; CellTiter-Glo; concentration not given).
`PSMD3 (human)`: “log2 fold change” -0.43 (CYB5R4 knockout human cells; PP4 interaction, 3xFLAG-PP4C IP-MS; concentration not given; reference: CYB5R4 KO over parental).
`epoetin alfa` gave a mRNA level of 3.4 fold (UT7/EPO; microarray, measured: PLSCR1 mRNA (probe set 241916_at); 5 U/mL, 90 min; reference: vehicle).
